Measured values collected from several papers.
A part holds a random share of what one study measured. Substitutions count along the parent as printed.

Series 1 — target: UBE2C UBC core domain (UniProt O00762); method: yeast two-hybrid; sample: yeast; notes: mostly zero background; relative to: not given; direction: higher = stronger interaction
B1: RNF122 RING domain (UniProt Q9H9V4); chain AKKLQLYGQTCAVCLEDFKGKDELGVLPCQHAFHRKCLVKWLEVRCVCPMCNKPIASPSEAT
B2: RNF152 RING domain (UniProt Q8N8N0); chain ETLSQDSLLECQICFNYYSPRRRPKLLDCKHTCCSVCLQQMRTSQKDVRCPWCRGVTKLPPGFS
B3: TRIM60 RING domain (UniProt Q495X7); chain ALVNLQEESSCPICLEYLKDPVTINCGHNFCRSCLSVSWKDLDDTFPCPVCRFCFPYKSFRR
B4: RNF187 RING domain (UniProt Q5TA31); chain ALPAGPAEAACALCQRAPREPVRADCGHRFCRACVVRFWAEEDGPFPCPECADDCWQRAVEP
B5: RNF183 RING domain (UniProt Q96D59); chain EQQGRELEAECPVCWNPFNNTFHTPKMLDCCHSFCVECLAHLSLVTPARRRLLCPLCRQPTVLASGQP
Construct (chain): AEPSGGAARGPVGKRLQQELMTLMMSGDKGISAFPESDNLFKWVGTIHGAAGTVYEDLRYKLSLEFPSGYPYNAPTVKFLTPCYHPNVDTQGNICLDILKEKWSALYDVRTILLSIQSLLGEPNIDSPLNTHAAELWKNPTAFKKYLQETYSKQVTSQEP
Molecule | lacZ reporter activity
B1 (RNF122 RING domain) | 0
MNDVLENELQCIICSEYFIEAVTLNCAHSFCSYCINEWMKRKIECPICRKDIKSKTYSL (RNF8 RING domain (UniProt O76064)) | 0
YPEEVDDDLICHICLQALLDPLDTPCGHTYCTLCLTNFLVEKDFCPMDRKPLVLQHCKK (LNX1 RING domain (UniProt Q8TBB1)) | 0
PEELAVNNDDCAICWDSMQAARKLPCGHLFHNSCLRSWLEQDTSCPTCRMSLNIADNNR (AMFR RING domain (UniProt Q9UKV5)) | 0
B2 (RNF152 RING domain) | 0
LDAASGHPLVCPLCHGQYERPCLLDCFHDFCTGCLRGRATDGRLSCPLCQHQTLVKGPSG (Rnf207 RING domain (UniProt Q3V3A7)) | 0
B3 (TRIM60 RING domain) | 0
B4 (RNF187 RING domain) | 0
B5 (RNF183 RING domain) | 0

Series 2 — method: EMSA with sequencing; form: double-stranded DNA, one strand shown; sample: in vitro; concentration: 10 and 20 nM; relative to: negative control set to 0; direction: higher = stronger binding
Target: Hepatocyte nuclear factor 3-alpha (Foxa1, Mus musculus, UniProt P35582, residues 1-468, full length assumed)
Notes: whole designed probe, mean of two concentrations, ends assumed
Construct (chain): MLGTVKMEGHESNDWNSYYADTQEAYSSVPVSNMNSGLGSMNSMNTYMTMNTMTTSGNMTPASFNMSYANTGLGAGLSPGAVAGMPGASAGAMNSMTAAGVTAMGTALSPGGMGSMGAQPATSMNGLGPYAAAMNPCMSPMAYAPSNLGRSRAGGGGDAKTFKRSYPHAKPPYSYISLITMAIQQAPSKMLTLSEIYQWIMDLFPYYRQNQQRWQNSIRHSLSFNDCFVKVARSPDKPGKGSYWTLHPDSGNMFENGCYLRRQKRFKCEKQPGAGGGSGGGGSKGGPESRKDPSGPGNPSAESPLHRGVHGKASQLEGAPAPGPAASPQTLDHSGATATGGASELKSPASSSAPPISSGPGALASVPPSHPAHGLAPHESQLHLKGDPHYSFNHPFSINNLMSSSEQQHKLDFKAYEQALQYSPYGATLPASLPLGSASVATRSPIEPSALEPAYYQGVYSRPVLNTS
Strand | normalised bound fraction
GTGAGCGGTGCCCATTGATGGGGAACATCTTCCCCCTCTTCCTTGCCCCACCAGCTCACCTTCCCGGGTTGTTTACTTTGAGTATTTATTTTCAAGCCGGCATTCGTTAACCCTCTTCTGGCGCAAACTGCACATTGGTCTGGATGAATCATGGTCCTTTGGCGACGCCAGGCTCCGGGAGAGCAAAGCACCGTGTCAGGGCCATGATCCGGGGTGGCCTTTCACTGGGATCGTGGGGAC | 0.32 ratio
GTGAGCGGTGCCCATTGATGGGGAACAACCCAGACAGTGACATCTTACAGGGGACTTCTTCTTCTTCCCCCATTGTATGTCTCCTCCTTTTATGTTTATCTAATCTATTCACATAACTATGTAATCTAGTACATTTACTAAAGTTTCTTCATGTTCATAAAATAATAACATACAGAATTATAAAAGTAGAAAGGTAAGGCCAAGCATGGGGGCTCACGCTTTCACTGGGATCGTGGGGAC | 0.177 ratio
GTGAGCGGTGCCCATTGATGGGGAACTAATAACGGCAATTCAGCACCCTCTTTCAAAGTAATATCACTGCAAATGGATCAGATAATAAAATGGAGCACTATAGCAATTCTGTGCACAAAATAAATAAGAAACCTGAACGCCCTGACAATGGTTCTACAATGAACACCAGAAAATTCCAAGCTAAACCACTGGTTCAACCCACTTACTGGGTTAAAGAGATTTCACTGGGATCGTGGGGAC | 0.304 ratio
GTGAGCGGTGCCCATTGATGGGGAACATCTTCCCCCTCTTCCTTGCCCCACCAGCTCACCTTCCCGGGTCAAAGTAAACAAGTGTTTACTTTGAAGCCGGCATTCGTTAACCCTCTTCACGCGCATACTGCACATTGGTCTGGATCTAACATGGTCCTTTGGCGACGCCAGGCTCCGGGAGAGCAAAGCACCGTGTCAGGGCCATGATCCGGGGTGGCCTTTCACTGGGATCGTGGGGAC | 0.441 ratio
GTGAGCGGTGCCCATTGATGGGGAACTATAGACTGCGGCAGCCCAGTTCAAAAGAAACAGGCTTTAAAGAAAAGCAAACTGGTGTCCAATGACATCAAATAGAACCAGGAGCTCCAAAGTACTTTAGCTTCTTGTCTCTGTTCTTATTTATTTATTGCTGTTGCTCACGCCAGTCAGGGCAGCAGGGGGCTGGCAGGCTTACTCATGGGCCCAGATAAGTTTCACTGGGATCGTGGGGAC | 0.285 ratio
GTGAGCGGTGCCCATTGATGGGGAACCTTGCTTACTGCTAGCACAGCAGTCTGAGATGCATCTGCGAGGCGGCAGCCTGGCTGGGGGAGGGGTATCCGCCATTGCTGAGGCTTGAGTAGGTAAACAAAGCAGCCAGGAAGCTCGAACTGGGCGGAGCCCACCTCAGCTCAACAACGCCTACTGCCTCTAGACTCCACCTCTGTGGGCAGGGCACAGCTGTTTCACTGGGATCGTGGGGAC | 0.409 ratio
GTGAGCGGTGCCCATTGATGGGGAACATCTTCCCCCTCTTCCTTGCCCCACCAGCTCACCTTCCCGGGTTATTTGCAGATAGGAAAATAAATAAAGCCGGCATTCGTTAACCCTCGATGAATCATGACTGCTGTTTGCTCTGGATCTAACATGGTCCTTTGGCGACGCCAGGCTCCGGGAGAGCAAAGCACCGTGTCAGGGCCATGATCCGGGGTGGCCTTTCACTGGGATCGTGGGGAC | 0.362 ratio
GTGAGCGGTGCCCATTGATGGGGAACTTGAGTTTTTTCCACTTTTTGACTACTATGAATAATGCTTCTGTAAACATTCTTGTACAAGTTTCTTTGGGAAATATTTTTTCAGTTCTCCTGTGTGTACTTAGGAGTTGAATTGCTGAGTGTTGTGGTAACTATGTTTAGCTTTTTGAGGAACTGCCAAACTATTTTCCAAAATGACTGCACCATTTTACAATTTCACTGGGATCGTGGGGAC | 0.354 ratio

Series 3 — method: RNA Bind-n-Seq; form: RNA; sample: in vitro; concentration: 365 nM; relative to: no-protein control; direction: higher = stronger binding
Target: RNA binding protein fox-1 homolog 2, RRM domain, GST-SBP tag (RBFOX2, Homo sapiens, UniProt O43251-10, residues 100-194)
Notes: natural RNA segment, single round, ends assumed
Target sequence (chain): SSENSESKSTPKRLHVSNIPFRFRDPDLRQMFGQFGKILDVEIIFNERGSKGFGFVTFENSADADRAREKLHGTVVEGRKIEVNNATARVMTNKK
Strand | RBNS enrichment (R)
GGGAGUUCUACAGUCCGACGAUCUCCUGAAACGGGCAGAGAUGAUGAACAGAAGUGUAUGUAAAUACAGCAGCUAGUGGGAGAGCACCAGUUGGGCCUAAUCCUGCCUCAUCAUUCUUGGCAGGAAUCUGCAAUGGAAUUCUCGGGUGCCAA | 0.421
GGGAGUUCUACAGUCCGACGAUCGCAUUCAUGAGGUUGGAGAGACUAUGAGAAAUAUGUAUAGUGUAUAUUUUAAACAGCUUUGCUUGUAUUGUGAAGAUUUAAGAACAAACUUGAGAUUUUUAAAGUUAACUUGGAAUUCUCGGGUGCCAA | 0.948
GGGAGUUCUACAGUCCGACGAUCCUCACCUUGGGUGUAGGGGUCAGUAGCAGCCACUCGCCCUUGCUCCAGUCCUUUGGGAGCCUGUCAGGAGACAAAGCUCAGGAUGCUGCUUGUGCUAGGAACACACCCUGUGGAAUUCUCGGGUGCCAA | 0.445
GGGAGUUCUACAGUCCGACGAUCUCAGAGACUUUGGGAAGAGAAAUUAAAACUGAAAACAAAGGAGAUAACACCCAUACUUAAGCCUGCACUUGUUUGUAGUUCAUCGCCCUUGGCCUGAGAGGCAGCCAAGGUGGAAUUCUCGGGUGCCAA | 0.96
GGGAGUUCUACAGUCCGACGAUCAUUAAUAUAUACAAAGAGUCCUAUAAAGCCUGGCUGGGUGGAGAGGCACUGUUGAGUGUCUGCUGGGGACCUGACUUUACCAGUUUCCUGAAUGGCGCCUCCCCACCUCAUGGAAUUCUCGGGUGCCAA | 0.668
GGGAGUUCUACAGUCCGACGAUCCCUGUAAUAGCACUUUGGAACUGUGGGCAAAACCAAAAGGCUAGUGUUUCCAUUUAUUCCAUGUUGGUGUAUGGGGUUGAACUGGAAAAUUCCCUGAGGCAAAACUCACUUGGAAUUCUCGGGUGCCAA | 0.242
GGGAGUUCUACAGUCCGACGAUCAUCUUGUAGCACCAACUGCUGUAAGGGAAUGCUGCAGACAGUGCUUGGGCGAGUGUGGCGCCAACAAGCCUGAGAUUCAAACGCUUUCCAUUUAAGCAAACCUCUUCUUGUGGAAUUCUCGGGUGCCAA | 0.658
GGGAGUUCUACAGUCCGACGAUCAAGUUAAAAUUAAGUAUAUACUUUAGGAAGUUACCAAUAACUUCCAUCAAAGCAGAGUAGGAUAUAUGGUAACAUUAAUUUUCGGUCAUUUCAAAUGAGGUAUAUUUCUUUGGAAUUCUCGGGUGCCAA | 0.33
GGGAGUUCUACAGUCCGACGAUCCAUAUUUGCCUCCUUAUAUAUAUCAAAGACCAAGGUAUUUCCUUCUGCUUCAAAAGAACAAAAUUGGGAAAGAAAACUCACUUGAGUCUUGAUCAAACAAGUGUCUUUUAUGGAAUUCUCGGGUGCCAA | 0.581
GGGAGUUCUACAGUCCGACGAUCUCAAAGUUGGAUGACCUCAUUACUAAUAUUUGUUGUAAAAGUGAAACUUGUUUGCCAACCAAUAAACAACUGAUUGAGAUUUAGAAGAUAUUGUAUUGAUGUAUGUACUAUGGAAUUCUCGGGUGCCAA | 0.399
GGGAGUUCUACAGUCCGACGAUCGCUGUAUUAGAUGCUCACAUUCUUUUGUGUCCAUCUCCCUGGGUAGACUGAACUGUGCUCAGGGAUGAGCUUUGCUCAUUUUUGUAUCCUUCCGUUCUAGCCCAGUAUCCUGGAAUUCUCGGGUGCCAA | 0.204
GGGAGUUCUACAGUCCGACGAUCAUCAGGCCCAGGAUCCCGGACCAAAGACUGAGAUGACCCUUCCAAUAAAAGGCCAUUUCGGACUCUGUCCUGCUUGGACUAAUUGGCCUUCUGGACCCCUCCACUCUGGCUGGAAUUCUCGGGUGCCAA | 0.254

Series 4 — method: DHFR PCA, deep sequencing; sample: yeast; added: (+)-ABA 17 µM; relative to: wild-type fitted maximum; direction: higher = stronger binding
Target: ABI1, truncated, D143A, DHFR fusion (Arabidopsis thaliana)
Notes: methotrexate growth selection, single substitutions
Parent: PYL1, truncated, DHFR fusion (Arabidopsis thaliana); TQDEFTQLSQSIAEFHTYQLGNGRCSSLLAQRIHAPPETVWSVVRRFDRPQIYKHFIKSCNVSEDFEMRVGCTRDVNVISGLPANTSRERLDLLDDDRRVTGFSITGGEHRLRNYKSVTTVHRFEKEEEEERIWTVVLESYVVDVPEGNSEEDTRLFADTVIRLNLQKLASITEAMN
Substitution | relative binding score [%]
H16P | 16
V121E | -2.66
L20R | 83
T154H | -18.1
E128N | 88.6
G81Q | -0.0148
H34I | 72.4
M68Q | 59.4
I133N | 103
E109P | 14.2
D48E | 65.6
D65S | 75.9

Series 5 — target: CCNB3, cyclin fold, Cln2 fusion (human); method: yeast growth competition, sequencing; sample: yeast; notes: strong parent motif; relative to: not given; direction: higher = stronger binding
Parent: SCAPER docking peptide (human); SNARRSLNFGGST; partner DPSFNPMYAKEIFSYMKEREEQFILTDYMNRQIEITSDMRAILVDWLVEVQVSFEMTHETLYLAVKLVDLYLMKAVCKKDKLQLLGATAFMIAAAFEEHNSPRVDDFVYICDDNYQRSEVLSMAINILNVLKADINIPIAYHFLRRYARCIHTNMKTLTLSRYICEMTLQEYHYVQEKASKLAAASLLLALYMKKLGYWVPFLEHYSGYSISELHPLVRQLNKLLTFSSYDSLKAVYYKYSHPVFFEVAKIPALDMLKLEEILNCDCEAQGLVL
Substitution | normalised enrichment score
N8S | 1.44
G11Q | 1.59
S12Y | 1.35
A3H | 0.241
A3Y | 0.407
A3E | 0.277
R4N | 0.338
F9D | 0.463
G11T | 1.7
S1C | 1.95
S1F | 2.68
S12E | 1.71
R5K F9L | 0.293
L7A | 0.522
N2R | 1.32
G10F | 0.558
S1N | 1.32

A few entries again (series 5):
Substitution | normalised enrichment score
S12E | 1.71
A3E | 0.277
F9D | 0.463
